# Measured values collected from several papers.
# Compare with care: the assays were run in different laboratories.
# Aspartate aminotransferase: Aspartate aminotransferase (Streptococcus pneumoniae, UniProt Q8DNN5)
# cssR 1-198: cssR 1-198 (Corynebacterium glutamicum)
# saeR full length assumed: saeR full length assumed (Staphylococcus aureus, UniProt Q2FIT4)
# Chain of UniProt Q2FIT4 (whole entry, looked up): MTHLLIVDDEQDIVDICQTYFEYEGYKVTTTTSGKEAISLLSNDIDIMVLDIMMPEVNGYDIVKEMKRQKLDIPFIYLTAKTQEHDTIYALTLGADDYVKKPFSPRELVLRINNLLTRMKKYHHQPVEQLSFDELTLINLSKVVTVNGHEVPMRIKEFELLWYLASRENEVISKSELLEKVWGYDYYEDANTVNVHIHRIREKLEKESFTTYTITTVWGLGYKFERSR
# HapB/HapC/HapE/HapX HapX 24-158: HapB/HapC/HapE/HapX HapX 24-158 (Aspergillus fumigatus)
# T1: cssR 1-198 (Corynebacterium glutamicum); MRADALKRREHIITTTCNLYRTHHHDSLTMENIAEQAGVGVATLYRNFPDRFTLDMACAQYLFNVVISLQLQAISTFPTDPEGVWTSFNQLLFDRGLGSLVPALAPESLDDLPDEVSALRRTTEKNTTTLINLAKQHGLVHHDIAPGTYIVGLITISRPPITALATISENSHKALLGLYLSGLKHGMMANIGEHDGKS
# T2: rgg3 1-283 (Streptococcus pyogenes); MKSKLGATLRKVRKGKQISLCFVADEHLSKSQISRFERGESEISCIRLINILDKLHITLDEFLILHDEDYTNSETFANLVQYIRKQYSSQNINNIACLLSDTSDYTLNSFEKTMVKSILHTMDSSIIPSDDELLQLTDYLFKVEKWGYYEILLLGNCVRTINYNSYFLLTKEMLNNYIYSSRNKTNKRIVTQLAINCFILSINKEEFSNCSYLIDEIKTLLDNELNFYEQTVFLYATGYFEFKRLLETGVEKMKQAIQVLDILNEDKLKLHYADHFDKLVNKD
# T3: basR 1-222 (Escherichia coli); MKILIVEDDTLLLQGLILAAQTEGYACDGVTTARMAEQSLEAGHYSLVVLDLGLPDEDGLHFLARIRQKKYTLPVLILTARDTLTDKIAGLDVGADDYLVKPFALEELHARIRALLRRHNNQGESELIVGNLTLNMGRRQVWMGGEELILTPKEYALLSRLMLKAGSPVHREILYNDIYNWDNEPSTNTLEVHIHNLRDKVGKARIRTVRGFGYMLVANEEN
# Chain of UniProt P33768 (whole entry, looked up): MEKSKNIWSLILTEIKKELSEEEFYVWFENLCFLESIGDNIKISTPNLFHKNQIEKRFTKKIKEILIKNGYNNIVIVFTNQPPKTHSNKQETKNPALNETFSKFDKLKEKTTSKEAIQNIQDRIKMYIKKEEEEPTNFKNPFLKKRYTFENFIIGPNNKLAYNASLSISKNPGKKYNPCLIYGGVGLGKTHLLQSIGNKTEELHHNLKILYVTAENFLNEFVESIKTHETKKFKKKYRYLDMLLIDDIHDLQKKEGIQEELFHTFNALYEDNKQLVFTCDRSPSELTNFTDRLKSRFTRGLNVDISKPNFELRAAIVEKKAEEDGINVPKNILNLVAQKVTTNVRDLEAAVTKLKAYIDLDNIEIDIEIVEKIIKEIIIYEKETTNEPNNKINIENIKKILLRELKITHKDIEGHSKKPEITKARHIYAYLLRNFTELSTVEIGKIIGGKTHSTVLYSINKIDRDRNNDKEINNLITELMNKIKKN
# Chain of UniProt Q45493 (whole entry, looked up): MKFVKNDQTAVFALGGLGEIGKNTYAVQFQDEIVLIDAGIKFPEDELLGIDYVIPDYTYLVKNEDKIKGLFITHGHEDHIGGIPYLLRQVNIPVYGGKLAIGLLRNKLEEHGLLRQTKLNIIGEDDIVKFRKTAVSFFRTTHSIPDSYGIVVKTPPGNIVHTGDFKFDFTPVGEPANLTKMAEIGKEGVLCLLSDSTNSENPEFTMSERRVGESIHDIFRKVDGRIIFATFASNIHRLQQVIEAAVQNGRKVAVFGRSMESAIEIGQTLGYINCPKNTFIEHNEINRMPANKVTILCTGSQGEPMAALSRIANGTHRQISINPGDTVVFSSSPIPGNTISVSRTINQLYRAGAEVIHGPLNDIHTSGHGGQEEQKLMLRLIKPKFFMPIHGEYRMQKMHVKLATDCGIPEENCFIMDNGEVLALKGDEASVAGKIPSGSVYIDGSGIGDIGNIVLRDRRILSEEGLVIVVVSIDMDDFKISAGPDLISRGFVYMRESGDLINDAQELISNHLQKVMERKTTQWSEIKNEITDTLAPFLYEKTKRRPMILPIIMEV
# Chain of UniProt O26057 (whole entry, looked up): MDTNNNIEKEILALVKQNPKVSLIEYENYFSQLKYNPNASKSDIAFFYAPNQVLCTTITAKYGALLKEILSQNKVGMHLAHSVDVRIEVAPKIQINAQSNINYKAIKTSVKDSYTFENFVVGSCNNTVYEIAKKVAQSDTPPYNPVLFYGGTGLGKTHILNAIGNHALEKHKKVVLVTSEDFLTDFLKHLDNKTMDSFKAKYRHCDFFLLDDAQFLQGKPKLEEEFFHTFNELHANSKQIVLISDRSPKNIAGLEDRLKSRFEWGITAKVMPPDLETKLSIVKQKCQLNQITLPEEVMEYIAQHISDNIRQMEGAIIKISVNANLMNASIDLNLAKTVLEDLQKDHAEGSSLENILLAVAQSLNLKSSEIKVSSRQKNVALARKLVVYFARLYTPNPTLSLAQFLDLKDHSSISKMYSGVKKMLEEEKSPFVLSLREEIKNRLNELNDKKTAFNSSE
# Chain of UniProt P60386 (whole entry, looked up): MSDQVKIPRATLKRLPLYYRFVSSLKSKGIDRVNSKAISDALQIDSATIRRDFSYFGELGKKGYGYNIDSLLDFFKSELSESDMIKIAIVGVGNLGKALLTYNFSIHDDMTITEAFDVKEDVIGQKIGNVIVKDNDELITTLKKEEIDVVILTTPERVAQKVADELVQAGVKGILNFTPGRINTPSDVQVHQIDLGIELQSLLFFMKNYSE
Molecule,target or system,test,test system,conditions,quantity,value
CAAATTCTTTAATTGTTGCTATTATATAATTTTTAAAATTAAAAATATAATCTTTAGACTTGAATTTGATTCTGTATTCACGCCCTCAATAGACGGTAAAATAAGAAAATTGTTTATATATTGTCTCCGTAGTGTTATTATACGAAATAAAAGATTTTAGGAAAAGTCGTTATATCATGCTATACCTATTCTTTGTGGTATAATTGCAAGAGGTTTAATCCG (dsDNA),Aspartate aminotransferase,hydroxyl radical footprinting,"double-stranded DNA, one strand shown",,binding,binds
GAAGTTATTGGGTGACATGGGATCTAACCCTTCTTGAATAGTGAACTGAACAACATTATCTAGATCACATTCTGAATCATGATTCATAAATGAACAAGGGTTCAGATTTTACAATACCCCCATTCCACCCCCTTATATTTAAGTCACCGCAGATCAGCTAAGGTTTTCCCTATGCCCACGCCTTCGCAGCACAAGGACGCTTCAACAGCACAAACCGACAAC (dsDNA (Corynebacterium glutamicum)),"T1, cssR 1-198 (Corynebacterium glutamicum)",EMSA,"double-stranded DNA, one strand shown",,binding,no binding
TAAAAAAGATGATAACACCTTCTACACCTCCATATCACAAAAATTATAACATTATTTTGACATAAATACTACATTTGTAATATACTACAAATGTAGTCTT (dsDNA),saeR full length assumed,EMSA,"double-stranded DNA, one strand shown",,binding,no binding
AATCCAGCCAATCATTCCGACCGTATTACCACGCGGA (dsDNA),HapB/HapC/HapE/HapX HapX 24-158,SPR,"double-stranded DNA, one strand shown",HapX on preformed CBC:DNA,Kd,< 0.1 µM
GATTTATTGTAATGTTATTTTTAGCTAGCAATTTTTTTTTTAAATAAGTACAATTAATTTAGCTTAAATGTAGTC (dsDNA),"dnaA full length assumed (Borreliella burgdorferi, UniProt P33768)",competition,"double-stranded DNA, one strand shown",1.4 µM,binding,binds
GGCAAUACAUUACAGUGCAUUUCUUUAAUGAGAAAUGCAUAAAAUAAAAAAGACCGAGGUGCUACCAACACCCCGGCUCUGUACAAAAAGUUGCCCAUCAAAGGGCUUGCUCGAUGUGGUUCUAGGUAGGCCUAUCCCUUCAGGUUCUGAGGCUCAAGGGAGGUC (structured RNA),"rnjA full length assumed (Bacillus subtilis, UniProt Q45493)",EMSA,,,binding,binds
GTTTTATGTACTATTATCTTATTTCTAAATATTAACTCTATTGATTATTGGTTTTTATACTTATTTAATTTTATTCAACTTTGACAATTGAATAGAAAGCAA (dsDNA),saeR full length assumed,EMSA,"double-stranded DNA, one strand shown",,binding,binds
melittin,,"membrane partitioning, ITC enthalpy vs temperature",POPC/POPG LUVs 50:50%,"concentration not given, 25 to 60 °C",heat capacity change,-0.58 kcal/mol/K
ACCAGCATTGACATGGATCGATGGATCGTAGACGCGCCCACCCCAAGGGTTTCGGCGGCACCGGAAATGGTCAAACTTCCAGAGTCACGGAGCAGCAAAATGAGCTGCAATGCAATGTCGACAGAGCTTAGAAATTCTTTCGGGGGTAACCCCTGGGTGGGGGCGACGTTATCCATAATCACTCTTTCCAGATAGCGGAATCCCTTTGATTGTAACTTGGCTCACCTCGATTATGTGTT (dsDNA (Corynebacterium glutamicum)),"T1, cssR 1-198 (Corynebacterium glutamicum)",EMSA,"double-stranded DNA, one strand shown",,binding,no binding
TTTCCCCAAAGTGGATTGTTTTTAAGCGAAAGGTTATCCACCAACGATAATCAGGATATCCATGATCAATGTAAAAAGCAAAGCTTTATTAACTTTTTTCATGACTGTCTCCTTTCTGATTTTCTATTTTGTACTTGTATTATATAATGGATTTAGCAGATTTTAATTTTTTGTTGTGAAAGTGGGAAAAATG (dsDNA),"T2, rgg3 1-283 (Streptococcus pyogenes)",EMSA,"double-stranded DNA, one strand shown",,binding,binds
CCACACAAGTTTTTGTACTTGACTACATTTAAGCTAAATTAATTGTACTTATTTAAAAAAAAAATTGCTAGCTAAAAATAACATTACAATAAATCTTATTGACATAAATTGATTTTTTTTATATAAGTAAATTATTG (dsDNA),"dnaA full length assumed (Borreliella burgdorferi, UniProt P33768)",EMSA,"double-stranded DNA, one strand shown",0.35-1.4 µM,binding,binds
CCAGCGCAAAGCAGCATGAAAATCCTTTTTTCGCATCCATTAGCTTATTATAAAGCAAGCATTATAGACAAACCCTTAAAAGAAACACCTTAATTTTAAGGCTTCATTCACATTTCATTCACATGTTATTCCTTTTTCATTCACCACTTATTCACGCTATAATAACGCCATGGATACCAACAACAATATTG (dsDNA (Helicobacter pylori); blunt ends),"dnaA full length assumed (Helicobacter pylori, UniProt O26057)",SPR,"double-stranded DNA, one strand shown",,binding,binds
AGATGGACGAACCAGTGAGTGTTGATTATTAAGGTACCCC (dsDNA),HapB/HapC/HapE/HapX HapX 24-158,SPR,"double-stranded DNA, one strand shown",HapX on preformed CBC:DNA,Kd,< 0.1 µM
CTAGGGATCCTAAAGGGGTATTAAACGCACTTCTAATAACGATTTTATAGCGCTTCAAAGATATAACACTAATTCATTTTAAATAATAATTAGTTAATGAACGCTTCTGTTAATCTTAGTAAATCAAAACATTGCTACAATTACATCCAACCTTGATTTCGTTATGTCTTCAAGGAAAAACACTTTAAGAATAGGAGCTGCAGCGATGC (dsDNA (Helicobacter pylori); blunt),"mua 1-153 (Helicobacter pylori, UniProt O25538)",EMSA,"double-stranded DNA, one strand shown",together with: EDTA 1 mM,binding,no binding
ATAGTAAAAAAACACATTTGTAGATATTTTAAACTCGGTAAATCTTTTAATAAATATTTAATTTTATTAAAAGTTAAAAAGGTTTAATATAAAAATGTAA (dsDNA),saeR full length assumed,EMSA,"double-stranded DNA, one strand shown",,binding,binds
TTCTAATTGCCTATGACTTTTTTTAGATAATAAATCTCTCATGAATATCTTTCTCTCTTTATAAATTATCGGATTAAACCTCTTGCAATTATACCACAAAGAATAGGTATAGCATGATATAACGACTTTTCCTAAAATCTTTTATTTCGTATAATAACACTACGGAGACAATATATAAACAATTTTCTTATTTTACCGTCTATTGAGGGCGTGAATACAGAATC (dsDNA),Aspartate aminotransferase,EMSA,"double-stranded DNA, one strand shown",,binding,binds
TCACAAATCAATAACCATGTTTTAAATTTTTCAAGCTACAATCATTAATTATTTATTAACTCAAATATTTAATAATCAGTTAATGGCATTCTGTTAATT (dsDNA),saeR full length assumed,EMSA,"double-stranded DNA, one strand shown",,binding,binds
AGATGCTCAGCAGAATCCCCCACATCCTGAAGGAGGTGTATTCAGACAGGCATCCCACCTGACTTCGAATGATGATTATTCATCACTATAGAGAGCATTGATTCTAAGTGTCATATGAAAGTACCAATTGATATATATCAAACAAAATAACCCTGATTAATGAATTATTACGTTTATCATG (dsDNA (Escherichia coli)),"T3, basR 1-222 (Escherichia coli)",EMSA,"double-stranded DNA, one strand shown",,binding,binds
AAATGTTGTCGGTTTGAATGCTGGTGAAGGACGTGTATTGACGCCTCATGAAGTAAAAGTGATGCGTCATTTAGCAGAACATGGGAAATAATTAAATAAAATATGTATTTATCACAAAGTTTGAGAATTTTTTCACAAAATTTTAGGTTTTTAATAACTGTATGCGCTTTCCTGTGATATAATACTTTTGTAAAGAAAAGCATGTGTGGGAGGTATGACCTGTATGTCGAA (dsDNA),"rex 1-211 (Staphylococcus aureus, UniProt P60386)",EMSA,"double-stranded DNA, one strand shown",together with: NAD+,binding,binds
CAAATTATTCTTTCTTCAATATTAGTTAAGCGATATTTAAACGAAGTTAAGAATTAGTTAATGGCATATTATTTGCCTTCATTTTAAACTTAACTTATC (dsDNA),saeR full length assumed,EMSA,"double-stranded DNA, one strand shown",,binding,binds

# Some of these lines once more:
Molecule,target or system,test,test system,conditions,quantity,value
TTCTAATTGCCTATGACTTTTTTTAGATAATAAATCTCTCATGAATATCTTTCTCTCTTTATAAATTATCGGATTAAACCTCTTGCAATTATACCACAAAGAATAGGTATAGCATGATATAACGACTTTTCCTAAAATCTTTTATTTCGTATAATAACACTACGGAGACAATATATAAACAATTTTCTTATTTTACCGTCTATTGAGGGCGTGAATACAGAATC (dsDNA),Aspartate aminotransferase,EMSA,"double-stranded DNA, one strand shown",,binding,binds
TTTCCCCAAAGTGGATTGTTTTTAAGCGAAAGGTTATCCACCAACGATAATCAGGATATCCATGATCAATGTAAAAAGCAAAGCTTTATTAACTTTTTTCATGACTGTCTCCTTTCTGATTTTCTATTTTGTACTTGTATTATATAATGGATTTAGCAGATTTTAATTTTTTGTTGTGAAAGTGGGAAAAATG (dsDNA),"T2, rgg3 1-283 (Streptococcus pyogenes)",EMSA,"double-stranded DNA, one strand shown",,binding,binds
GGCAAUACAUUACAGUGCAUUUCUUUAAUGAGAAAUGCAUAAAAUAAAAAAGACCGAGGUGCUACCAACACCCCGGCUCUGUACAAAAAGUUGCCCAUCAAAGGGCUUGCUCGAUGUGGUUCUAGGUAGGCCUAUCCCUUCAGGUUCUGAGGCUCAAGGGAGGUC (structured RNA),"rnjA full length assumed (Bacillus subtilis, UniProt Q45493)",EMSA,,,binding,binds
